Experimental data pooled from the literature.
Protocols differ between the studies behind these lines.
Target: 1-phosphatidylinositol 3-phosphate 5-kinase (PIKFYVE, Homo sapiens, UniProt Q9Y2I7)

SMILES | test | test system | setting | quantity | value
Cc1cnc2nc1Nc1cccc(c1)COC/C=C/COCc1cc(ccc1OCCN1CCOCC1)N2 | – | – | concentration not given | percent of control | 100%
CS(=O)(=O)Nc1cccc(-c2csc3cnc(Nc4ccc(N5CCN(CCCCCOc6cccc7c6C(=O)N(C6CCC(=O)NC6=O)C7=O)CC5)cc4)nc23)c1 (centres unmarked) | probe labelling, inhibitor, KiNativ chemoproteomics | MOLT-4 | 1 µM | inhibition | -0.464%
CNC(=O)C1CCN(c2cc(C)c(F)cc2NC(=O)c2ccc(-c3cc(O)ccc3C)c(C)c2)CC1 | binding, competition with immobilised ligand | – | 1 µM | remaining binding | 100%
Nc1ncc2c(n1)-c1c([nH]c3ccc(C4=CCOCC4)cc13)CCC2 | binding, competition with immobilised ligand | – | 1 µM | remaining binding | 0%
CC(C)=CC1OC(C)(C)C2C=C3C(=O)C(Cl)=CC(O)C3C3C(O)C4OC4C(=O)C132 (centres unmarked) | cell-free assay, competition with immobilised ligand | – | 10 µM | remaining binding | 85%
C=CC(=O)N1CCCC(n2c(=O)c3ncccc3n(Cc3ccc(Oc4ccccc4)cc3)c2=O)C1 (centres unmarked) | cell-free assay, competition with immobilised ligand | – | 1 µM | remaining binding | 76%
COc1c(Cl)cccc1Nc1c(-c2ccncc2C#C[C@@]2(C)CCCN2C(=O)/C=C/CN(C)C)[nH]c2c1C(=O)NCC2 | binding, competition with immobilised ligand | – | 3 µM | remaining binding | 32%
COc1cc(Nc2nccc(-c3cnn4nc(OC)ccc34)n2)cc(C(F)(F)F)c1 | binding, competition with immobilised ligand | – | 1 µM | remaining binding | 81%

For quick reference, copied from above:
SMILES | test | test system | setting | quantity | value
Cc1cnc2nc1Nc1cccc(c1)COC/C=C/COCc1cc(ccc1OCCN1CCOCC1)N2 | – | – | concentration not given | percent of control | 100%
